Published values gathered from unrelated publications.
Each line is one published result; not all experiments were run side by side.
MAPK3 with MyD88: Mitogen-activated protein kinase 3, with MyD88 (MAPK3, Homo sapiens, UniProt P27361)
MAPK3: Mitogen-activated protein kinase 3 (MAPK3, Homo sapiens, UniProt P27361)

Compound | target | assay | system | conditions | endpoint | value
CNc1ccc(-c2nc3cc(C(=O)Nc4ccc(OC)nc4)ccc3[nH]2)cc1 | MAPK3 with MyD88 | ERK1-MYD88 interaction, HTRF | – | concentration not given | inhibition | 26.7%
COc1cc(Nc2nccc(-c3cnn4nc(OC)ccc34)n2)cc(C(F)(F)F)c1 | MAPK3 | binding, competition with immobilised ligand | – | 1 µM | remaining binding | 99%
NC(=O)C[C@H]1CCc2sc3ncnc(O[C@H]4CC[C@H](N5CCOCC5)CC4)c3c21 | MAPK3 | enzyme activity, inhibitor | – | 10 µM | inhibition | 4%
Nc1nc(Nc2ccccc2)sc1C(=O)c1ccccc1 | MAPK3 | enzyme activity, inhibitor | – | 10 µM | remaining activity | 59%
Cc1ccc(-c2c(/C=C(\C#N)C(=O)NC(C)C)n(CCCO)c3ncnc(N)c23)cc1 | MAPK3 | cell-free assay, competition with immobilised ligand | – | 1 µM | remaining binding | 100%
CN(C)c1ccc(-c2nc3cc(C(=O)Nc4ccc(O)nc4)ccc3[nH]2)cc1 | MAPK3 with MyD88 | ERK1-MYD88 interaction, HTRF | – | concentration not given | inhibition | 26.5%
C=CC(=O)Nc1cc(-c2nn(C3CCN(CCNC(=O)[C@H](C)CCC45CC6CC(CC(C6)C4)C5)CC3)c3ncnc(N)c23)ccc1Oc1ccccc1 | MAPK3 | inhibitor, KiNativ profiling | biochemical | 2 µM | inhibition | 2.1%
CC(C)=CC1OC(C)(C)C2C=C3C(=O)C(Cl)=CC(O)C3C3C(O)C4OC4C(=O)C132 (stereo not shown) | MAPK3 | cell-free assay, competition with immobilised ligand | – | 10 µM | remaining binding | 90%
COc1ccc(NC(=O)Nc2ccc3c(c2)C(=O)N(C(C)CO)CC(C)C(CN(C)Cc2ccc4c(c2)OCO4)O3)cc1 (stereo not shown) | MAPK3 | binding, competition with immobilised ligand | – | 10 µM | remaining binding | 92%
CCN1CCN(Cc2ccc(C(=O)Nc3ccc(C)c(NCc4cnc5[nH]ccc5c4OC)c3)cc2C(F)(F)F)CC1 | MAPK3 | binding, competition with immobilised ligand | – | 1 µM | remaining binding | 100%
Cc1ccc(C)c(-c2ccc3nc(NC(=O)C4CCCCC4)nn3c2)c1 | MAPK3 | enzyme activity, Dundee kinase panel | – | 10 µM | remaining activity | 92%
Cc1cccc(O[C@H]2CCC[C@@H](C(C)CNCc3ccncc3)C2)c1 (relative stereo) | MAPK3 | enzyme activity, inhibitor | – | 1 µM | inhibition | -3%
C=CC(=O)N1Cc2nc(-c3cc(-c4cc(Cl)cnc4Cl)c(F)cc3F)n(-c3ccncn3)c2C1 | MAPK3 | cell-free assay, inhibitor | – | 1 µM | inhibition | 3.2%
C=CC(=O)Nc1cccc(-c2cnc3[nH]cc(C(=O)NC(C)(C)C)c3n2)c1 | MAPK3 | enzyme activity, inhibitor | – | 0.1 µM | inhibition | 2%
CNS(=O)(=O)Nc1nccc(Cc2c(C)c3ccc(Oc4ncccc4F)cc3oc2=O)c1F | MAPK3 | binding, competition with immobilised ligand | – | 10 µM | remaining binding | 83%
Cc1cccc(-c2ccc3nc(NC(=O)C4CCCO4)nn3c2)c1 (stereo not shown) | MAPK3 | enzyme activity, Dundee kinase panel | – | 10 µM | remaining activity | 97%
Nc1ncc2c(n1)-c1c([nH]c3ccc(C4=CCOCC4)cc13)CCC2 | MAPK3 | binding, competition with immobilised ligand | – | 1 µM | remaining binding | 100%
CN1CCN(Cc2ccc(NC(=O)c3cccc(C#Cc4cnc(N)c5ncccc45)c3)cc2C(F)(F)F)CC1 | MAPK3 | cell-free assay, competition with immobilised ligand | – | 50 nM | remaining binding | 92%
CNC(=O)C1CCN(c2cc(C)c(F)cc2NC(=O)c2ccc(-c3cc(O)ccc3C)c(C)c2)CC1 | MAPK3 | binding, competition with immobilised ligand | – | 1 µM | remaining binding | 98%

For quick reference, copied from above:
Compound | target | assay | system | conditions | endpoint | value
CNc1ccc(-c2nc3cc(C(=O)Nc4ccc(OC)nc4)ccc3[nH]2)cc1 | MAPK3 with MyD88 | ERK1-MYD88 interaction, HTRF | – | concentration not given | inhibition | 26.7%
